Results collected from several papers.
Protocols differ between the studies behind these lines. Values joined by “and” are separate records of one study, mostly repeats; a detail may differ.
MET: Hepatocyte growth factor receptor (MET, Homo sapiens, UniProt P08581)

For `CCn1cc(C(=O)O)c(=O)c2c(N)c(F)c(NC3CCCCC3)cc21`, the inhibition was 1.2% (MET; kinase activity; 0.1 µM, with: ATP at Km).
With `NC(=O)[C@@H](O)C[C@H]1CCc2sc3ncnc(O[C@H]4CC[C@H](N5CCOCC5)CC4)c3c21` the inhibition was -6% (MET; enzyme activity, inhibitor; 10 µM).
`CN1CCN(Cc2ccc(-c3ccc(CO[C@H]4CCC[C@@H]4NC(=O)c4cc(-c5cnn(C)c5)cnc4N)cc3)cc2)CC1` gave an inhibition of -2% (MET; enzyme activity, inhibitor; 0.1 µM).
For `CNC(=O)C[C@H](Cc1ccc(C#N)cc1)NC(=O)c1cc(-c2ccc(CN[C@H](C)c3ccc(C)cc3)o2)ccc1Cl`, “activity vs control” read 99% (MET; enzyme activity, inhibitor; 1 µM).
For `O=C(Nc1ccc(Oc2ncnc3[nH]cc(-c4ccccc4)c23)c(F)c1)c1c2n(n(-c3cc(F)ccc3F)c1=O)CCCC2`, the inhibition was 94% (MET; enzyme activity, inhibitor; 0.5 µM).
The remaining activity of `Cc1cnc2nc1Nc1cccc(c1)COC/C=C/COCc1cc(ccc1OCCN1CCOCC1)N2` is reported as 95% (MET (Homo sapiens, UniProt P08581, M1250T); concentration not given; baseline: untreated control).
`C=C1CCCCCCCCCC(CO)C1=O` (stereo not drawn) has a remaining signal of 89% (MET; cell-free assay; 10 µM).
`C[C@H]1CN(C(=O)c2cn(-c3ccnc(N)n3)c3cc(C#CC4(O)CCCCC4)ccc23)CCN1` gave an inhibition of 4% (MET; enzyme activity, inhibitor, FRET; 1 µM).
For `Cc1cccc(O[C@H]2CCC[C@@H](C(C)CNCc3ccncc3)C2)c1` (relative stereo), the inhibition was -5% (MET; kinase activity, kinome panel screening; 10 µM).
`C=CC(=O)Nc1cccc(-c2cnc3[nH]cc(C(=O)NC(C)(C)C)c3n2)c1` has an inhibition of 6% (MET; enzyme activity, inhibitor; 0.1 µM).
`COCC12C(=O)NC3C4(C(OC)CC1O)C1CC5(O)C(OC)C(O)C(OC(C)=O)(C1C5OC(=O)c1ccccc1)C3(O)C(OC)C24` (stereo not drawn) gave a remaining activity of 105% and 100% (MET; kinase activity, inhibitor, ProQinase kinase profiling; 25 µM; baseline: control).
With `CN1CC[C@@H](COc2cnc(C#N)cc2-c2ccn3nc(NC(=O)C4CC4)cc3c2)C1` the inhibition was 9% (MET; enzyme activity, inhibitor; 1 µM).
